{"data": "Measurements gathered from unrelated publications", "organism": "Enterococcus faecium", "note": "Compare with care: the assays were run in different laboratories. ± marks the error that the study gave."}
{"SMILES": "CN(C)c1cc(CN)c(O)c2c1C[C@H]1C[C@H]3[C@H](N(C)C)C(O)=C(C(N)=O)C(=O)[C@@]3(O)C(O)=C1C2=O", "test system": "494, Tet M and Tet L", "MIC": "> 64 µg/mL"}
{"SMILES": "CC(C)C[C@H](NC(=O)[C@H](CC(N)=O)NC(=O)[C@H](CCCNC(=N)N)NC(=O)[C@@H](CC(C)C)NC(=O)[C@H](Cc1ccc(-c2ccccc2)cc1)NC(=O)[C@H](CC(=O)O)NC(=O)[C@H](CCCCN)NC(=O)[C@@H](CC(C)C)NC(=O)[C@H](CCCNC(=N)N)NC(=O)[C@H](CCC(N)=O)NC(=O)[C@@H](NC(=O)[C@@H](CC(C)C)NC(=O)[C@H](CCCNC(=N)N)NC(=O)[C@H](CCCCN)NC(=O)[C@H](Cc1ccc(-c2ccccc2)cc1)NC(=O)CN)C(C)C)C(=O)N[C@H](C(N)=O)C(C)C", "test": "broth microdilution", "test system": "ATCC 51559", "MIC": "3.1 µM"}
{"SMILES": "CNC(CC(C)C)C(=O)NC1C(=O)NC(CC(N)=O)C(=O)NC2C(=O)NC3C(=O)NC(C(=O)NC(C(=O)NC(CCCNC(=N)N)C(=O)OC)c4cc(O)cc(O)c4-c4cc3ccc4O)C(O)c3ccc(c(Cl)c3)Oc3cc2cc(c3OC2OC(CO)C(O)C(O)C2OC2CC(C)(N)C(O)C(C)O2)Oc2ccc(cc2Cl)C1O (stereo not shown)", "test": "broth microdilution", "test system": "ATCC BAA-2317 VanA", "MIC": "8 µg/mL"}
{"SMILES": "CCOC(=O)c1ccc2c(c1)n(CC)[c]([Au-][Cl])[n+]2CC", "test": "broth dilution", "test system": "DSM 20477", "setting": "20 h, 37 °C", "MIC": "5.6 ± 2.4 µM"}
{"SMILES": "CC[P+](CC)(CC)[Au-][S][C@@H]1O[C@H](COC(C)=O)[C@@H](O[C@@H]2O[C@H](COC(C)=O)[C@H](OC(C)=O)[C@H](OC(C)=O)[C@H]2OC(C)=O)[C@H](OC(C)=O)[C@H]1OC(C)=O", "test system": "ATCC 700221", "MIC": "0.1 µM"}
{"SMILES": "CNC(CC(C)C)C(=O)NC1C(=O)NC(CC(N)=O)C(=O)NC2C(=O)NC3C(=O)NC(C(=O)NC(C(=O)NCCCNC(=N)N)c4cc(O)cc(O)c4-c4cc3ccc4O)C(O)c3ccc(c(Cl)c3)Oc3cc2cc(c3OC2OC(CO)C(O)C(O)C2OC2CC(C)(N)C(O)C(C)O2)Oc2ccc(cc2Cl)C1O (stereo not shown)", "test system": "ATCC BAA-2317 VanA", "setting": "with: +LTA 100 µg/mL", "MIC": "8 µg/mL"}
{"SMILES": "CN(C)c1cc(CNC2CCCC2)c(O)c2c1C[C@H]1C[C@H]3[C@H](N(C)C)C(O)=C(C(N)=O)C(=O)[C@@]3(O)C(O)=C1C2=O", "test system": "494, Tet M and Tet L", "MIC": "0.5 µg/mL"}
{"SMILES": "C[C@H]1COc2c(N3CCN(C)CC3)c(F)cc3c(=O)c(C(=O)N[C@@H](CCCNC(=N)N)C(=O)N[C@@H](Cc4ccc(-c5ccccc5)cc4)C(=O)N[C@@H](CCCNC(=N)N)C(=O)N[C@@H](Cc4ccc(-c5ccccc5)cc4)C(=O)N[C@@H](CCCNC(=N)N)C(N)=O)cn1c23", "test": "broth microdilution", "test system": "ATCC 2316", "MIC": "5 µM"}
{"SMILES": "COCCNCc1cc(N(C)C)c2c(c1O)C(=O)C1=C(O)[C@]3(O)C(=O)C(C(N)=O)=C(O)[C@@H](N(C)C)[C@@H]3C[C@@H]1C2", "test system": "494, Tet M and Tet L", "MIC": "1 µg/mL"}
{"SMILES": "CNC(CC(C)C)C(=O)NC1C(=O)NC(CC(N)=O)C(=O)NC2C(=O)NC3C(=O)NC(C(=O)NC(C(=O)NC(CCCNC(N)=O)C(=O)OC)c4cc(O)cc(O)c4-c4cc3ccc4O)C(O)c3ccc(c(Cl)c3)Oc3cc2cc(c3OC2OC(CO)C(O)C(O)C2OC2CC(C)(N)C(O)C(C)O2)Oc2ccc(cc2Cl)C1O (stereo not shown)", "test": "broth microdilution", "test system": "ATCC BAA-2317 VanA", "MIC": "31 µg/mL"}
{"note": "For quick reference, copied from above:"}
{"SMILES": "CN(C)c1cc(CN)c(O)c2c1C[C@H]1C[C@H]3[C@H](N(C)C)C(O)=C(C(N)=O)C(=O)[C@@]3(O)C(O)=C1C2=O", "test system": "494, Tet M and Tet L", "MIC": "> 64 µg/mL"}
